Assay results collected from several papers.
Parts stem from different laboratories: compare values within a part only. Changes are numbered by the printed parent chain.

Study 1 — technique: universal PBM; molecule type: double-stranded DNA, one strand shown; sample: in vitro; concentration: 600 nM; reading: higher = stronger binding
Target: Sal-like protein 4, full length isoform A (SALL4, Homo sapiens, UniProt Q9UJQ4, residues 1-1053)
Chain of UniProt Q9UJQ4 (whole entry, looked up): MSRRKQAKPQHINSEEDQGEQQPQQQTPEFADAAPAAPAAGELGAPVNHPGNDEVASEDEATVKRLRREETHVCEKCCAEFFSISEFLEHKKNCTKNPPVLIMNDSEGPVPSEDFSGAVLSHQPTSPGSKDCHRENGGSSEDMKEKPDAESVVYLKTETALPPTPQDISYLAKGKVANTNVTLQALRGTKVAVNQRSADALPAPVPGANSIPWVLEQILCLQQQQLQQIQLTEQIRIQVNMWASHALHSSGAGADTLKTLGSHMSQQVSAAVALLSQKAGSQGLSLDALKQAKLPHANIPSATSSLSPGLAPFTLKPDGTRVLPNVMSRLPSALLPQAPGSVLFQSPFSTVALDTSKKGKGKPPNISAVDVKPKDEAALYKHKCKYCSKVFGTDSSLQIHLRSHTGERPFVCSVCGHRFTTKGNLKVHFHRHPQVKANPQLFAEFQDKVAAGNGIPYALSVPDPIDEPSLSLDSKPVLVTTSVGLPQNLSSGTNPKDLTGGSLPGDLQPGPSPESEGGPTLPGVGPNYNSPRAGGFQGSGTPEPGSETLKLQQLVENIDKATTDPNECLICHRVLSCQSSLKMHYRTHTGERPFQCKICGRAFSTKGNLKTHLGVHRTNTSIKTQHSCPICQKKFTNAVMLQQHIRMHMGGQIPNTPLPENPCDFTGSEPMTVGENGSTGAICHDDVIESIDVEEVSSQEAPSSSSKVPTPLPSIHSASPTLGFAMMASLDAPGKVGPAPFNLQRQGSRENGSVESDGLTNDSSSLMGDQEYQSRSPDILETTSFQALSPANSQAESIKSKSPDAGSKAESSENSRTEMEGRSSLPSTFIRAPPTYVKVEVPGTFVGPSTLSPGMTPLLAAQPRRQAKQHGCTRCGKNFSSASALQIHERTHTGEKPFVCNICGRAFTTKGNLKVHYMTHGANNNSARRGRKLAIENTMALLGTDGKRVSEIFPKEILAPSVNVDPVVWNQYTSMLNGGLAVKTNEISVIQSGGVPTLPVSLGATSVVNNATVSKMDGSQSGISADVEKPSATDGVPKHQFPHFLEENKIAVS
Setting: 8-mer, flanks averaged, mean of replicates
Oligonucleotide	E-score
AGTGCGCG	-0.3
GCTGAGGA	-0.172
AGGGTAAT	0.166
AACCATGA	0.103
CAAAGTCC	-0.25
GAAACATC	0.108
TGATGACA	0.0114
CCTTTGGC	-0.0985
AGTGTCAA	0.012
AGATCCAG	-0.161
GATCTGAC	-0.11
ATGACGCC	-0.154
CGGTTAAC	-0.0767
ATACTGGG	-0.05
AAAAAAGA	0.198
CAGGATAG	-0.016
ATCGCACC	-0.102
GCGTGTGA	0.00958
GTTCCGCA	-0.0715
CCTGCAAA	-0.0523
ATCAATCC	0.087
GATGTCCC	-0.204
TGAATCCA	0.151
CAGGACAG	-0.295
AGGGAACC	-0.212

Study 2 — technique: competition protein-binding microarray; molecule type: double-stranded DNA, one strand shown; sample: in vitro; concentration: 2 µM; together with: Cbf1 competitor, 0.05 µM; reading: higher = stronger binding
Target: Phosphate system positive regulatory protein PHO4, full length, GST-tagged (PHO4, Saccharomyces cerevisiae, UniProt P07270, residues 1-312)
Setting: whole 60-bp probe, lowest competitor level
Target sequence (chain): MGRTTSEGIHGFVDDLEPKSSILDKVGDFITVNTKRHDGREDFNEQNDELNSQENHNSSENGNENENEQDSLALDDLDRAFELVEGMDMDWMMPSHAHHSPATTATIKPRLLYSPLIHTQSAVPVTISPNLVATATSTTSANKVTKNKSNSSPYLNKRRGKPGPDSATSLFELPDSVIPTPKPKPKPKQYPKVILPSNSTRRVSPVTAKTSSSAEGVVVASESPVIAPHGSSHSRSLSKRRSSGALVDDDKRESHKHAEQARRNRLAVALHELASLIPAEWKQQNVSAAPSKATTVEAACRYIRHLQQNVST
Oligonucleotide	fluorescence intensity
GTCTACAGCGTACTTCACGTTGTTCTCCTGAGGCAGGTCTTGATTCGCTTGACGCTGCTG	8710 a.u.
AAATTACTAAGTTGCCACGTGGGTGACGCCGTATGAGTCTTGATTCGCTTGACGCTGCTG	25700 a.u.
AAATGGCCAATATTCTACGTGCTTTTTATTAGAAACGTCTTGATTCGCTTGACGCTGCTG	7050 a.u.
ACATCTGGGCAAATCGTCGTGCGGAAAATGAATTTGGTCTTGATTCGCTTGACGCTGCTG	6490 a.u.
AAAGCGGTAATTTGTCCTGTGGGTGCAGATATCTATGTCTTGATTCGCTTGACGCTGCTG	4590 a.u.
TTGCTCCTGGATTGGTTCGTGACTCGGCACTTTACGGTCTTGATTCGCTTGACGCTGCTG	4000 a.u.
ACAAGGGCCCTTAAAGGCGTGACTCGAAAAAGGGGCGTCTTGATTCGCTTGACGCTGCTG	5780 a.u.
GTTGTTGGGATCCGTCACGTGTAGGCAAAACGCGTTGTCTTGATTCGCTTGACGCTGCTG	13900 a.u.
GGGCTTCAGAAAAAAGGCGTGCGATGTGTAGATGTAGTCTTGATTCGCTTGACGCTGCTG	9470 a.u.
CTTCTGTAAATTTTTCACGTGGTCTGACGCGCCCCGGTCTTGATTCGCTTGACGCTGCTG	11600 a.u.
TTTTCTTTTACCGGCCACGTGAAATGATGATAAAAAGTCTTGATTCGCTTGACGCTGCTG	12700 a.u.
TACCGATGATGTTGTCATGATGGACAGTGATGAGGGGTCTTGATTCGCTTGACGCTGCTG	5320 a.u.
CTTCTGTAAATTTGTCGAGTGGGTGGACGCGCCCCGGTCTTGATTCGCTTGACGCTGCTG	4660 a.u.
TTCCGCAGGTTTATCAACGTGTTTCACTTATATCGGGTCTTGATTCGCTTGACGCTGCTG	12200 a.u.
CTTCTGTAAATTTGTGGGGTGGGTGGACGCGCCCCGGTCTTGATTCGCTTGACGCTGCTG	4960 a.u.
AAAGCGGTAATTTGTTGTGTGGGTGCAGATATCTATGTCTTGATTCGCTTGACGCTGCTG	5120 a.u.

Study 3 — target: OGT, full length, His-tagged (human); technique: phage display, sequencing; sample: in vitro; concentration: 1 µg OGT; relative to: input library; reading: higher = stronger binding; starting sequence: peptide; NSEYMPQYQIIFAHQ
Setting: single substitutions, 15-mer displayed peptide, unchanged parent 16.7
Change	fold enrichment [fold]
F12V	6.47
I10R	0.365
M5G	1.03
S2R	11.4
S2Y	15.1
M5N	3.65
H14F	5.86
S2I	13
Q9F	4.08
Q7G	4.24
N1M	12.1
Y4R	0.771
M5Y	8.58
P6K	0.0111
I11A	0.945
N1R	11.3
N1A	15.4
M5P	7.75
Q7S	8.15

Study 4 — technique: protein binding microarray; molecule type: double-stranded DNA, one strand shown; sample: in vitro; concentration: not given; relative to: not given; reading: higher = stronger binding
Target: Histone acetyltransferase KAT6A, winged helix 2, GST fusion (KAT6A, Homo sapiens, UniProt Q92794, residues 85-181)
Setting: 8-mer, flanks averaged, mean of 2 arrays, mostly near background
Residues (chain): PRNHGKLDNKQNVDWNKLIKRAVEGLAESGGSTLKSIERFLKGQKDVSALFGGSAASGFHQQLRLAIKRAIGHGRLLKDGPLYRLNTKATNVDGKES
Oligonucleotide	E-score
CCTCAATC	0.173
ATAGAACC	-0.155
GAAGTGTA	-0.284
GAGTACTA	-0.0127
CATCGCTA	0.113
AGCTTAAC	-0.067
CCTTGTCG	0.0617
GGTCTGAA	0.0578
ATGAATTA	0.0747
CCTTCGAC	-0.0369
GGCCCCCA	-0.00035
CAAGCACA	0.0957
CGTCCTTA	-0.119
ATTTGGCA	0.0222
AGGTCCCG	0.135
ATGGCAGC	0.0652
GATTAGTA	-0.0278
CCATTCGA	-0.058
CAAAGCTC	0.0222
GGGCCACA	0.0601
GCCAGGCA	0.0788
ACGCTACG	-0.0121
TATATGGA	-0.0604
CGGGCCGA	0.0678

Excerpt of the above (study 2):
Oligonucleotide	fluorescence intensity
AAAGCGGTAATTTGTTGTGTGGGTGCAGATATCTATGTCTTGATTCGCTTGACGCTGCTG	5120 a.u.
ACATCTGGGCAAATCGTCGTGCGGAAAATGAATTTGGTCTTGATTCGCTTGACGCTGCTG	6490 a.u.
AAATGGCCAATATTCTACGTGCTTTTTATTAGAAACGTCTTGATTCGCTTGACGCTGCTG	7050 a.u.
CTTCTGTAAATTTTTCACGTGGTCTGACGCGCCCCGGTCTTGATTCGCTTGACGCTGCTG	11600 a.u.
CTTCTGTAAATTTGTGGGGTGGGTGGACGCGCCCCGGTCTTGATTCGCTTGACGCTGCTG	4960 a.u.
